Assay results collected from several papers.
Numbered parts are unrelated; each lists some results of a single study. Several values in a cell are separate wells, animals, samples, runs or records. pIC50: −log10 of the molar value.
Chain of UniProt P53778 (whole entry, looked up): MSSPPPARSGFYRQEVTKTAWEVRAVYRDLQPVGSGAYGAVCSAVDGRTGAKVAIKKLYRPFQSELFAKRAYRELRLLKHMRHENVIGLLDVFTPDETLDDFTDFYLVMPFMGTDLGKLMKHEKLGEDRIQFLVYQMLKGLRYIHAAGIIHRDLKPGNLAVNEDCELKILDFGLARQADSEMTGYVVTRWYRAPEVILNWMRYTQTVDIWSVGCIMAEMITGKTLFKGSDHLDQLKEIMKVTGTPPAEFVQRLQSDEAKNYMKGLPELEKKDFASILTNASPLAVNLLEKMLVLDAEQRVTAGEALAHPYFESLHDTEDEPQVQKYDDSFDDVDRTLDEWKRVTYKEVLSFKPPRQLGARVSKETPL
Chain of UniProt P00519 (whole entry, unmodified, looked up): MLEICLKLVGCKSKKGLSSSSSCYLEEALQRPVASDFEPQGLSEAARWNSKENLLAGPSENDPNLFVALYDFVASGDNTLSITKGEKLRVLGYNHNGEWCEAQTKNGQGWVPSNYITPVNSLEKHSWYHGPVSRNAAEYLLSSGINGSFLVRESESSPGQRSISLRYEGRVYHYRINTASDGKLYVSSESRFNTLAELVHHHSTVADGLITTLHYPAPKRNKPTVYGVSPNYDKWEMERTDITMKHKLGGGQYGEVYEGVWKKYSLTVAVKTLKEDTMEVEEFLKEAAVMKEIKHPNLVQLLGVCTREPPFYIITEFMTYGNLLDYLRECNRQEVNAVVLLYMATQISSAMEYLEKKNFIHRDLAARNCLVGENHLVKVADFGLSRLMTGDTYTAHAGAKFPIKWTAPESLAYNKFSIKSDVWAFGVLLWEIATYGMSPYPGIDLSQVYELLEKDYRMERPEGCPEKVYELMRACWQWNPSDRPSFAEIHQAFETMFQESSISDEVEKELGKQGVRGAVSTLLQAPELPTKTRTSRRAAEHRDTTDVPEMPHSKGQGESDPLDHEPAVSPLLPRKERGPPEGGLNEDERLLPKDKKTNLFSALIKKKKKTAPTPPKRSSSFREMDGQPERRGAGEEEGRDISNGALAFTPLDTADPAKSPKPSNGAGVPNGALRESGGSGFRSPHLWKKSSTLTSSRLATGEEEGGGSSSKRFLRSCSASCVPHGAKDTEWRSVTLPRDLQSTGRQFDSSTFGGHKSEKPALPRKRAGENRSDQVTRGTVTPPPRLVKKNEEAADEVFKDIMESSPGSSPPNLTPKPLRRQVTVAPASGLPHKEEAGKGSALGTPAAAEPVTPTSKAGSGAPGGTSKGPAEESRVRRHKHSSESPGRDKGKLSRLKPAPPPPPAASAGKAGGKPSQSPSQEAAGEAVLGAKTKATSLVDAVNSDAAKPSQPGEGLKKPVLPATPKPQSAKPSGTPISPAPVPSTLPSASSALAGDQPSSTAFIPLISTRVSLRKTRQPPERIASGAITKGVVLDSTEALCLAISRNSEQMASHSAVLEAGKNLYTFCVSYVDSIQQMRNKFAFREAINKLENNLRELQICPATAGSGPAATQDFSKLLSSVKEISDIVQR

Study 1
Target: Fragile X messenger ribonucleoprotein 1, C-terminal low-complexity region (Fmr1, Mus musculus, UniProt P35922)
Technique: RNA Bind-n-Seq
Molecule type: RNA
Medium: in vitro
Concentration: 200 nM
Setting: whole 134-nt RNA, ends assumed
With: 150 mM LiCl
Relative to: input library
Reading: higher = stronger binding
Each molecule: 7-deaza-guanosine replaces G
All sequences stand within: GGGAGUUCUACAGUCCGACGAUC … UGGAAUUCUCGGGUGUCAAGG
| Sequence | log2 enrichment |
| --- | --- |
| CAAGUCCUGUGCUACACAUCGUAUGUACCGAAUCGGGGUGGGGUUUGGGGAGGGGAAAGUAUUAUGUUACGCCGUUCGGAUCUGCACUUC | -0.26 |
| CUGUGCUACACAUCGUAUGUACCGAAUCGGGCCCCCCCGGGCCCCCCCGGGGCCCCCCCGGGAAAGUAUUAUGUUACGCCGUUCGGAUCU | -0.94 |
| UGGCCCUGGUGGCAUGCGGGGAGGAAGAGGUGGCCUCAUGGAUCGUGGUGGUCCCGGUGGAAUGUUCAGAGAUGGCCGUGGUGGAGACAG | -0.355 |
| CAAGUCCUGUGCUACACAUCGUAUGUACCGAAUCGGGAAAGGGGAAAGGGAAAGGGAAAGUAUUAUGUUACGCCGUUCGGAUCUGCACUU | -0.817 |
| GCAGGAAAAAAAAACAAAUGGAAAUGCUUCGGAUAGUGGCAGGGGUGGGGGUUGCUAAGGAAAGGGUGGGAUGGGAGUGGGUAAAGAGUU | 1.67 |
| CAAGUCCUGUGCUACACAUCGUAUGUACCGAAUCGGAAAAAAAGGAGGUUUUUGGAAAGUAUUAUGUUACGCCGUUCGGAUCUGCACUUC | -1.62 |
| AAGUCCUGUGCUACACAUCGUAUGUACCGAAUCGGGGUGGGGAAAGGGGUUUGGGGAAAGUAUUAUGUUACGCCGUUCGGAUCUGCACUU | -1.48 |
| GGGGACGGCAAAACAGAACAGAAAGGCGGAGAUAAAAAGAGGGGUGUUAAAAGACCACGAGAAGAUCAUGGCCGUGGAUAUUUUGAGUAC | 1.25 |

Study 2
Target: Centromere-binding protein 1, full length, His-tagged (CBF1, Saccharomyces cerevisiae, UniProt P17106, residues 1-351)
Chain of UniProt P17106 (whole entry, looked up): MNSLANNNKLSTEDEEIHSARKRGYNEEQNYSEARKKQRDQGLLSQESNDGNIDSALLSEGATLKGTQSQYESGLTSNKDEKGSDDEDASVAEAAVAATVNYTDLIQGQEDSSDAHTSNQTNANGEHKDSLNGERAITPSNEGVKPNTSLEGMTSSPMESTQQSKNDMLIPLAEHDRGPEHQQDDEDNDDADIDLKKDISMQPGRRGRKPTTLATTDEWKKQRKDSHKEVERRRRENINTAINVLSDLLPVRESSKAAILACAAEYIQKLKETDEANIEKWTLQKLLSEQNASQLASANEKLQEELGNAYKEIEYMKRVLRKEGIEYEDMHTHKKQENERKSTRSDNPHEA
Technique: competition protein-binding microarray
Molecule type: double-stranded DNA, one strand shown
Medium: in vitro
Concentration: 2 µM
Setting: whole 60-bp probe, lowest competitor level
With: Pho4 competitor, 0.05 µM
Reading: higher = stronger binding
All sequences stand within: … GTCTTGATTCGCTTGACGCTGCTG
| Sequence | fluorescence intensity [a.u.] |
| --- | --- |
| CAAAAACAGCCTCCTCACGTGCCAGCATCTGTCTTG | 839 |
| AGAGGTTCCTCTCGCCATGAGGTGAGTCAGCCACTG | 60.3 |
| CGTCCTAGTGATTGTCACCCAACTTCCATGAGGAAG | 91.1 |
| CGTCCTAGTGATTGGCATGTGGGTGCCATGAGGAAG | 99.9 |
| CTAACGAAGGTTTGGTGCGTGGGTGACAAGCCAAGT | 70.1 |
| CCTAGCACTCGCTATTTCGTGACGGCGTTCCAGGAC | 70.2 |
| CTAACGAAGGTTTGCAGAGTGGGTGACAAGCCAAGT | 66.6 |
| GCTGAAAAGCGCGTTCTCGTGCGATGCTTTCAGTGT | 71.9 |

Single results of other studies
| Compound | tested on | assay | system | setting | scale | quantity | value |
| --- | --- | --- | --- | --- | --- | --- | --- |
| CN1CC[C@H](c2c(O)cc(O)c3c(=O)cc(-c4ccccc4Cl)oc23)[C@H](O)C1 | HuT78 | RNA-seq, refers to: ACAD11 | – | concentration not given | relative to: untreated control | log2 fold change | 0.733 |
| CCc1[nH]c(-c2ccc(OC)cc2)nc1-c1ccncc1 | MAPK12 (Homo sapiens, UniProt P53778) | enzyme activity, inhibitor, radiometric | – | – | – | pIC50 | < 4.52 |
| CC(=O)N[C@@H](Cc1c[nH]c2ccccc12)C(=O)N[C@@H](CCC(=O)C=[N+]=[N-])C(=O)OC(C)C | – | UPLC-MS/MS | EL4 tumor, C57BL/6 CES1-/- mice, tumor | subcutaneous, 0.3 mg/kg DON equivalent daily, 5 days | higher = more metabolite | threonate level | 1.13e+09 a.u. and 1.44e+09 a.u. and 1.67e+09 a.u. and 1.51e+09 a.u. and 1.46e+09 a.u. and 1.94e+09 a.u. |
| N#CC1(c2ccccn2)CCN(Cc2cc(C(=O)O)c(=O)n3ccccc23)CC1 | Tyrosine-protein kinase ABL1, phosphorylated (ABL1, Homo sapiens, UniProt P00519, F317I) | binding | – | 1 µM | – | remaining binding | 81% |
| O=C1CCC(N2Cc3cc(C4CCN(Cc5ccccc5)CC4)ccc3C2=O)C(=O)N1 (stereo not drawn) | – | – | Sprague Dawley rats, male, plasma | intravenous, 1.0 mg/kg | – | steady-state volume of distribution | 12.6 L/kg |

A few entries again (study 2):
| Sequence | fluorescence intensity [a.u.] |
| --- | --- |
| AGAGGTTCCTCTCGCCATGAGGTGAGTCAGCCACTG | 60.3 |
| CGTCCTAGTGATTGTCACCCAACTTCCATGAGGAAG | 91.1 |
| CGTCCTAGTGATTGGCATGTGGGTGCCATGAGGAAG | 99.9 |
